# Published values from different studies.
# Numbered parts are unrelated; each lists some results of a single study.

# Set 1
# Target: Histone acetyltransferase KAT6A, winged helix 1, GST fusion (KAT6A, Homo sapiens, UniProt Q92794, residues 1-85)
# Method: protein binding microarray
# Molecule type: double-stranded DNA, one strand shown
# Medium: in vitro
# Concentration: not given
# Notes: 8-mer, flanks averaged, mean of 2 arrays, mostly near background
# Relative to: not given
# Reading: higher = stronger binding
# Residues (chain): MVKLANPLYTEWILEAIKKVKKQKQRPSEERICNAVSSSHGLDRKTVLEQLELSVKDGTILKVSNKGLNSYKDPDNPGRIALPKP
Strand,E-score
TGTTTAAA,-0.0981
GACGATCA,-0.204
ACCACCTA,-0.0503
GGACGAAC,0.0887
TCACGACA,-0.163
CTATAGCA,0.095
GAGTGAAC,-0.0548
AGTCTAGC,-0.0667
CTGTATCA,-0.055
GTTCGTTA,-0.00524
CCAACTGC,0.0806
AGGACATA,-0.0526
ACGTTGTC,-0.06
AGATTTAT,0.0255
AGATCTCA,-0.107
GCACCAAC,0.0119
ATATATAG,-0.0999
AGCAAATC,-0.147
CACAAATA,-0.0941
CCCGAAGG,0.0259
ACCTTAAC,-0.00371
AGCACTCC,-0.14
CATAAGGA,-0.215
GGACACAA,-0.18
AGTGATAA,-0.0801

# Set 2
# Target: RNA binding protein fox-1 homolog 2, RRM domain, GST-SBP tag (RBFOX2, Homo sapiens, UniProt O43251-10, residues 100-194)
# Method: RNA Bind-n-Seq
# Molecule type: RNA
# Medium: in vitro
# Concentration: 365 nM
# Notes: natural RNA segment, single round, ends assumed
# Relative to: no-protein control
# Reading: higher = stronger binding
# All sequences stand within: GGGAGUUCUACAGUCCGACGAUC … UGGAAUUCUCGGGUGCCAA
# Residues (chain): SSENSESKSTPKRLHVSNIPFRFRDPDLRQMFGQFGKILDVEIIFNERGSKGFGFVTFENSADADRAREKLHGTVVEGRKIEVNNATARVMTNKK
Strand,RBNS enrichment (R)
AAUUGUACUGGCUGUUGACCACCAGACACCUGACUGCAAAUAUCUUUUCUUGUAUUCCCAUAUUUCUAGACAAUGAUUUUUGUAAGACAAUAAAUUUAUUCAUUAUAGAU,0.253
ACCUGCAGCGGCUGCCCUCUGGGGCCACUUGGUAGUGUCCCCAGCCUACCUCUCCACAAGGGGAUUUUGCUGAUGGGUUCUUAGAGCCUUAGCAGCCCUGGAUGGUGGCC,0.228
UCGGGAGGCUGAGGCAGGAGAAUCGCUUGAACCCUGGCGAAACCCCAUUUCUAAAAUAGAAAAAUUUAGCCGGGUGUGGUGGUGUGUGCCUAUAGUCCCAGCUAUUCGGG,0.842
AACUGUCACCACUGCUAAGGGACUCUAUCCAUUGAGCACAUUUUCCUAAGGCCCUGCUGUCUGCCGAGGAGCGCCAAGAAGAUGUCACUUGUUUACACACGAACUGCCAC,0.806
AGGCCAUCUUCUGUGUCGGUGCUGUGAUCUGCCUUGUUCUCACUUGCUGAGGAUAAGGGCAUACACGCUGCUCCUCGCUUUCUUGUUGCCCGACUUCGUACUAAGCAGCU,0.271
UCUCUGCUUGAACACAGUAUUCUCCCAGUCCACACCCAUUGCCAGUGUCUUUCUUUGGUGCCUUUCCUGUUCAGCAUUCUCAGCCUGUGGCAGUAAAGAGAAACUUUGCU,1.37
GGCAGGAUCCCUGCCUACGCCCGGGCCCGAUUUGCGCUUUGCCGGACUGGAUGGAGUGGAGGAGGCCCAGGCCACAGUACCACCCCACCUGCCCAGGCAGCCCCUCGUCA,0.143
UAGAACUGAAUUCCUUCCUCCCCUGUCUCAUUUCUACCCAGUGAGUUCAUUUGUCAUAUAGGCACUGGGUUGUUUCUAUAUCAUCAUCGUCUAUAAACUAGCUUUAGGAU,0.803

# Set 3
# Target: Prothrombin, mature alpha-thrombin (F2, Homo sapiens, UniProt P00734)
# Method: aptamer microarray, sandwich
# Molecule type: DNA with 2'F-ANA
# Medium: in vitro
# Concentration: 200 nM
# Notes: whole 15-mer aptamer, many near background
# Added: Cy3 exosite-II aptamer, 400 nM
# Reading: higher = stronger binding
# Strand: GGTTGGTGTGGTTGG
Modification,mean fluorescence intensity
2'F-ANA at 2 5 7 10 13 15,61.9 a.u.
2'F-ANA at 1 2 3 5 11 14,47.1 a.u.
2'F-ANA at 1 3 4 5 8 9 10 13 14,48.2 a.u.
2'F-ANA at 3 4 7 10 11 12 15,376 a.u.
2'F-ANA at 1 2 4 5 6 7 10 12 14 15,49.4 a.u.
2'F-ANA at 2 4 9 10 11 13,70.3 a.u.
2'F-ANA at 2 5 6 8 10 13,48.2 a.u.
2'F-ANA at 4 5 6 7 10 12 14,51.6 a.u.
2'F-ANA at 1 5 6 7 8 13,67.8 a.u.
2'F-ANA at 2 3 5 6 9 11 13 14 15,51.7 a.u.
2'F-ANA at 2 4 6 7 8 9 15,321 a.u.
2'F-ANA at 1 2 3 4 7 12,425 a.u.
2'F-ANA at 1 2 3 4 10 11 13,80.1 a.u.
2'F-ANA at 1 2 4 7 8 10 12 14,46 a.u.
2'F-ANA at 3 6 8 13 14,544 a.u.
2'F-ANA at 1 2 3 4 5 6 8 11 12 13 14,61.5 a.u.
2'F-ANA at 2 4 8 9 10 12 14,74.8 a.u.
2'F-ANA at 2 4 6 7 9 10 14 15,112 a.u.
2'F-ANA at 1 3 6 7 8 9 11 12 13,373 a.u.
2'F-ANA at 10 13 14 15,97.3 a.u.
2'F-ANA at 1 3 4 5 6 7 10 12 13 15,74.6 a.u.
2'F-ANA at 1 3 5 7 9 15,69.7 a.u.
2'F-ANA at 2 4 6 8 9 15,298 a.u.

# Set 4
# Target: Sal-like protein 4, full length isoform A (SALL4, Homo sapiens, UniProt Q9UJQ4, residues 1-1053)
# Chain of UniProt Q9UJQ4 (whole entry, looked up): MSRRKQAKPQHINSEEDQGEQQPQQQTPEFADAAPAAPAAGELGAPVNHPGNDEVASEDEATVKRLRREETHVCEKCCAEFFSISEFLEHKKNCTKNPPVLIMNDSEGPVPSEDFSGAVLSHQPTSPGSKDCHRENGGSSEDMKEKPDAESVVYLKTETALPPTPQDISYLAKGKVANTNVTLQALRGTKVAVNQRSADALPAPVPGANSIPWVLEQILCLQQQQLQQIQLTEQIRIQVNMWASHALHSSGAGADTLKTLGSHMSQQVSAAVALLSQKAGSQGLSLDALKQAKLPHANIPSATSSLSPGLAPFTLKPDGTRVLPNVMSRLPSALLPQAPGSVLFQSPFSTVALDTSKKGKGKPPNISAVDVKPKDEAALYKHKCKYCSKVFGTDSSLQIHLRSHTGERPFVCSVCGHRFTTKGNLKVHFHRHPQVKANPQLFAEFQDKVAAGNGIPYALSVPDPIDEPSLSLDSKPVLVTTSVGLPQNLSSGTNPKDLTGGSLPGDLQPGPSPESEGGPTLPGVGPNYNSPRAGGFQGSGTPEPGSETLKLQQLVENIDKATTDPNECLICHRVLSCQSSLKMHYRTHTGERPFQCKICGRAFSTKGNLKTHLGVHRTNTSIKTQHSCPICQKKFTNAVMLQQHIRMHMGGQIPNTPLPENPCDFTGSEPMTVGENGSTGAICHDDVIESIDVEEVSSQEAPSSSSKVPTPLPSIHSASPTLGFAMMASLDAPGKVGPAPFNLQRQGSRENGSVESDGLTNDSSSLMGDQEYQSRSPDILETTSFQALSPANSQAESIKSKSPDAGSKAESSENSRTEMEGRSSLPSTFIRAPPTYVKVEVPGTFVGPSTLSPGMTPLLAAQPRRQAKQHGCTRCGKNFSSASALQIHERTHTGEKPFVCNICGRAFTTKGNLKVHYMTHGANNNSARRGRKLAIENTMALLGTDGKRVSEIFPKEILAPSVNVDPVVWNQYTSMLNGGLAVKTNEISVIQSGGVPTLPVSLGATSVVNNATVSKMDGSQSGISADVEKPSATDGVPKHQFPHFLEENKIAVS
# Method: universal PBM
# Molecule type: double-stranded DNA, one strand shown
# Medium: in vitro
# Concentration: 600 nM
# Notes: 8-mer, flanks averaged, mean of replicates
# Reading: higher = stronger binding
Strand,E-score
ATCCCAAG,-0.118
CATGGCGA,-0.171
AGTGTTTG,0.16
GCGATGTA,0.0866
CACTGCGC,-0.245
GACGAACC,0.004
ATAGACGC,0.158
GACGTCCC,-0.341
ATTGCCAG,0.0769
GCGTTTCC,-0.155
TGGAATAA,0.213
AACATCTG,0.0865
GAAGTGCA,0.0256
CTATTGAA,0.198
CACGATTA,0.111
AGCTGAGG,-0.109
AACGACTG,-0.113
CCGTAGCA,0.0206
TCAATGCA,0.152
GACAGATA,0.117
GCGTAACA,0.0578
ACGCCGCG,-0.258
GTGAGTGA,-0.127
GCACGTTA,-0.0255
CTTATTCA,0.148

# For quick reference, copied from above (set 4):
Strand,E-score
GACAGATA,0.117
GACGAACC,0.004
GACGTCCC,-0.341
GTGAGTGA,-0.127
CTATTGAA,0.198
TGGAATAA,0.213
ATTGCCAG,0.0769
CCGTAGCA,0.0206
GCGTTTCC,-0.155
ATCCCAAG,-0.118
ATAGACGC,0.158
